Assay results gathered from unrelated publications.
Each numbered part is a random draw from the data of one study; scales do not carry over between parts.

Set 1
Target: Interferon regulatory factor 3, full length, phosphomimetic (IRF3, Homo sapiens, UniProt Q14653, residues 1-427, S386D/S396D/S398D/S402D/T404D/S405D)
Technique: protein-binding microarray
Molecule type: double-stranded DNA, one strand shown
Medium: in vitro
Tested at: 2540 nM top
Notes: 60-bp whole probe
With: salmon DNA 0.4 mg/ml
Baseline: random background probes
Reading: higher = stronger binding
Quantity: fitted relative affinity
All sequences stand within: GCCTAGCAC … GTCTTGATTCGCTTGACGCTGCTG
Target sequence (chain): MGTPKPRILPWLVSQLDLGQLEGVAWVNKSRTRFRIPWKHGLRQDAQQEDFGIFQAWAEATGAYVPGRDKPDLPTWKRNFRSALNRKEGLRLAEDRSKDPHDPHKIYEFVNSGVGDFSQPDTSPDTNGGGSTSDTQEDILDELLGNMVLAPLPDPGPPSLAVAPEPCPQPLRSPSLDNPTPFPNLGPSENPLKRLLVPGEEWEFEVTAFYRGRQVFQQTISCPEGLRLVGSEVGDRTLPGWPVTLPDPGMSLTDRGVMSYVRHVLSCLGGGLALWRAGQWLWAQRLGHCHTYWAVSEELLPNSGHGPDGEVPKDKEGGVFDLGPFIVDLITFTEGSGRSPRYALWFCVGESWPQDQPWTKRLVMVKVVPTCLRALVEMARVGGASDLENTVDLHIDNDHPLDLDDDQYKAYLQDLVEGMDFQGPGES
TTAGAACTGGGGACTGGATTAGTGCTA: -0.8 z-score
TTAGGTTTCCTACTGCTTCAGTGCTAG: 4.87 z-score
GACGGTTTCCTTTTCCTTACGTGCTAG: 11.3 z-score
TTAGAACTGAGTTTCAATTAGTGCTAG: 0.527 z-score
GACGGTATCGACTATCGCGACGTGCTA: 0.556 z-score
GACGGTATCGGTTTCAGGACGTGCTAG: 6.16 z-score
AAGTAAAATGCAAAGAGGAAGTGCTAG: -0.419 z-score
TTAAGACTGCTTCTCCTTTAGTGCTAG: -0.162 z-score
GACGGACTGGGGACTGTGGACGTGCTA: -0.855 z-score
TCATATATATTTATGTAACTGTGCTAG: 0.646 z-score
TTAGGTTTCCATTCCCTTTAGTGCTAG: 8.75 z-score
ACGTAGAAGGAAGAAGCACGGTGCTAG: -0.461 z-score
TTAGAACTGGGGTACCGATTAGTGCTA: 0.493 z-score

Set 2
Target: RNA binding protein fox-1 homolog 2, RRM domain, GST-SBP tag (RBFOX2, Homo sapiens, UniProt O43251-10, residues 100-194)
Technique: RNA Bind-n-Seq
Molecule type: RNA
Medium: in vitro
Tested at: 365 nM
Notes: natural RNA segment, single round, ends assumed
Baseline: no-protein control
Reading: higher = stronger binding
Quantity: RBNS enrichment (R)
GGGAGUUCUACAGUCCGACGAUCUUAUCUGGACAUGAUUUUGCUAUGCAGUUGUGAUAAUAAAAAUUCCAGCUCCUCAGGUUUAACCUCUAAGUUGUGGAUGGAGACUAUUUAAAGUACACAUGAUGUAUUCAUGGAAUUCUCGGGUGCCAA: 0.601
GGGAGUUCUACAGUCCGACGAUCAUGUUUCAAUACCUACAAACCUAUUGAAAGAGAACAGUAGGUAAAACAUUUCCUAAAGUUGAAGCAAUAGCUUCGUAGAUUCUUGGUUACUUUAUUUUUUUUAAUGCUUUUGGAAUUCUCGGGUGCCAA: 0.785
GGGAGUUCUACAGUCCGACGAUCCCUAACGCUGCAUCAACGGGAGGGAGGGUCCUGAAAGAGACCCAUCUGGGCCUGUCUGAACCCCUCGUUCUUCAUGUUUAGGUGAAUAUGAAUAUGUUAAAGCUGGUGGCUGGAAUUCUCGGGUGCCAA: 0.651
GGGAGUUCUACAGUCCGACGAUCCUCACCUCCCUGUUCCAGGCUGAGAACUCAAAUGGUUACCCUGCUUCUUCCUACAAUGCUGUGUGAUAUGGGUGAACCCAGCCCCUGACCUUCCUCUAUCCCCUGCCCAUUGGAAUUCUCGGGUGCCAA: 0.763
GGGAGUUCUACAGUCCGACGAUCCAUGGGUGUUUGAUUUCAGAAAUCAGUAUCUGGUGAGAUUUUUGUCUCAAAACUACCAUUUGAAUUUCAAGAACUCUGCUGCAAAACCACUCUGAGAAUGUUUCCAAGUGUGGAAUUCUCGGGUGCCAA: 1.37
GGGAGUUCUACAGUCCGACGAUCUUGUUAAAAGCAGCAAGAAGCCUGGUAAAACUGUGACUUUUCCCCAAAUGUCAAUCUUUAUUAGAAAGCAUUUUCUAGGUGUGUUUAGUGUGCAAAGAAACUUUCUAACCUGGAAUUCUCGGGUGCCAA: 0.878

Set 3
Target: RING finger protein unkempt homolog, zinc fingers 1-6, GST-SBP tag (UNK, Homo sapiens, UniProt Q9C0B0, residues 30-357)
Technique: RNA Bind-n-Seq
Molecule type: RNA
Medium: in vitro
Tested at: not given
Notes: RNA with constant flanks, human and mouse sites, ends assumed
Baseline: input RNA pool
Reading: higher = stronger binding
Quantity: bound/input enrichment
Target sequence (chain): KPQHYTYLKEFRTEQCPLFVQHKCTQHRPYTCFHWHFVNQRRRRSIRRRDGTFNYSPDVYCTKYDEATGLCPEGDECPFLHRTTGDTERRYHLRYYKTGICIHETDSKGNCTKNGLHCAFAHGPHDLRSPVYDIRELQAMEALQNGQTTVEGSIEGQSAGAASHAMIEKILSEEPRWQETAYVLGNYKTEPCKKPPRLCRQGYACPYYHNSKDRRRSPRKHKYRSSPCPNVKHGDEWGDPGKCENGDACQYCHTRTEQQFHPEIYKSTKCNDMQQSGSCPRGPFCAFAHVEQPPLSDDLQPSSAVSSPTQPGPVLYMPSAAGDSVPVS
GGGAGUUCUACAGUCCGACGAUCGUUAUAGGAGUUUACAAAAAAAUACCAACAUGUCAUCACCCACGCCAUUUAAGAUGAGAUUAGUUCAUUUGGACCUUAAAGGAGCGCCGCCAAAGGUUUCAUAUCUCUCUGAGGUUUUUCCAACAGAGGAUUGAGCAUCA: 2.88 ratio
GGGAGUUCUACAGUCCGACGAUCCCUCGGGCUGCCACUGUGGUUGCCCGGGGCCCUUUGAAGUGCGUUAAGUUGGACCGGCCUCGGUUUGAACGCGUCCUUGGCCCGUGCUCAGACAUCCUCAAGCGGAACAUCCAGCAGUACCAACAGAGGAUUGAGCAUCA: 0.0882 ratio
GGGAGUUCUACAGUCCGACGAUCUUAAAAGAAGCAGCCCAGUCAAUUGAACAAAGAUUGAUGAAAAUGGAUCACACUGCAAUCCACCCACAUCUACUUGAUAUGAAAAUUGGUCAAGGCAAAUAUGAGCAAGGGUUCUUUCCACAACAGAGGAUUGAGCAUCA: 0.179 ratio
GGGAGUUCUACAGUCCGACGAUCAUUUUGGCUCUCAUUUCACUCUUCAGUGUUCCUGUUAUUUAUGAACGGCAUCAGGCACAGAUAGAUCAUUAUCUAGGACUUGCAAAUAAGAAUGUUAAAGAUGCUAUGGCUAAAAUCCAACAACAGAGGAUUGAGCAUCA: 0.486 ratio
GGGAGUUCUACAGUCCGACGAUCAGUUCCAGAGCUCCUUCAUUGGUUUUAAUAAACUCUAAGGUAGUUAAAGAUGAAGGGCCAGCAUAUAUUUAUAUGAUAAGUUUAGAUUAUGAGCGUGAGUACCAAUUAAGUUUGAAUGAACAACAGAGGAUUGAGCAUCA: 1.51 ratio
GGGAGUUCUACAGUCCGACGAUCGGCAAAGGCAAAGGCGGCUCGGGAGAUUCAGCCGUGAAGCAAGUGCAGAUAGAUGGCCUUGUGGUAUUAAAGAUAAUCAAACAUUAUCAAGAAGAAGGACAAGGAACUGAAGUUGUUCAACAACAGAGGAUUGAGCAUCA: 0.154 ratio
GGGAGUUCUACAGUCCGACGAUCUCAAAAAGUGGAGGCUCUUAUGGUACUACAUGGGGUGCCUAUGGUUCUAAUUACUCUGGAGACAAAUGUUCAGGCCCUAAUGGCCAAGCUAAUGGUGACACUGUGAAUGCAACUCUAAUGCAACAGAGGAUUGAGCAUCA: 0.175 ratio

Set 4
Target: Ras GTPase-activating protein-binding protein 1, RRM domain (G3BP1, Homo sapiens, UniProt Q13283)
Chain of UniProt Q13283 (whole entry, looked up): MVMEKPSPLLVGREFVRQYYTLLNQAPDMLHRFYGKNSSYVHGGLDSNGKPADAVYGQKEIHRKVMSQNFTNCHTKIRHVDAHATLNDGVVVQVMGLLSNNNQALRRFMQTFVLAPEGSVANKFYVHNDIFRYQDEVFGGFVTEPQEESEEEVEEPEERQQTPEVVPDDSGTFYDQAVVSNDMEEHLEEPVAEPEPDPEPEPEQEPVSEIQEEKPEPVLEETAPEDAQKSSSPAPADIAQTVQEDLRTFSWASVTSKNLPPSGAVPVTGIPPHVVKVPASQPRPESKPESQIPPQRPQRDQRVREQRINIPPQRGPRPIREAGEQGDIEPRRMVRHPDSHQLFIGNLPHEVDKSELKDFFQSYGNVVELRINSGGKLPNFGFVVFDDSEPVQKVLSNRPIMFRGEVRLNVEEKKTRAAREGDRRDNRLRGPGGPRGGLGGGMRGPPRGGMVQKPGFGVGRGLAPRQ
Technique: RNA Bind-n-Seq
Molecule type: RNA
Medium: in vitro
Tested at: 1 µM
Notes: whole 134-nt RNA, ends assumed
With: 150 mM KCl
Baseline: input library
Reading: higher = stronger binding
Quantity: log2 enrichment
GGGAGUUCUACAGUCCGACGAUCUGGGAGGUGGAUUUUGUUUAUUUUUUUAGCUCAUUUCCAGGGGUGGGAAUUUUUUGUUAAUAUGUGUCAUGAAUAAAGUUGUUUUUGAAAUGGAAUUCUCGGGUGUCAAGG: 1.37
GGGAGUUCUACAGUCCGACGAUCACCAUGCAGGUGGGCAUCUUUGGGAAGUGGGGCAAGGGGGGGAUAGGGAAAAGGGUAACACUUUGGGAACAGGUGGUCCCAGGUCGUUUCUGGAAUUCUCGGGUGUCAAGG: -0.365
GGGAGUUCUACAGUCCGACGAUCCACAGACAACACGCACCCACACAGACACAGAGGGAAGGGGUUGGGAUGGGGUCAGGGUGCACAGCAGGGCGGGGUAGGACCCCAGCCCCUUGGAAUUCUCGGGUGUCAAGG: 0.134
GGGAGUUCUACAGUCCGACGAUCUGGGAGGUGGAUUUUGUUUAUAUUUUUAGCUCAUUUCCAGGGGUGGGAAUUUUUUUUUAAUAUGUGUCAUGAAUAAAGUUGUUUUUGAAAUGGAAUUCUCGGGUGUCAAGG: 1.76
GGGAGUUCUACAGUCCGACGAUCUCCUGUGCUACACAUCGUAUGUACCGAAUCGGGAAAAAGGGGAAAAAGGGAAAAAGGGGAAAGUAUUAUGUUACGCCGUUCGGAUCUGCAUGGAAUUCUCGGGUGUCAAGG: -0.0757
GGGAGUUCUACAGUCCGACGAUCUCCUCAAGUCCUGUGCUACACAUCGUAUGUACCGAAUCGGAGGAGGAAAGGAAAGUAUUAUGUUACGCCGUUCGGAUCUGCACUUCCAGCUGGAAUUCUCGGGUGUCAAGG: -0.21
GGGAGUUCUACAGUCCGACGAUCCUGUGCUACACAUCGUAUGUACCGAAUCGGGGUUUUUUUGGGUUUUUUUGGGGUUUUUUUGGAAAGUAUUAUGUUACGCCGUUCGGAUCUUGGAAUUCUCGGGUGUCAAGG: -0.212
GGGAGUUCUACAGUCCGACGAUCCAAGUCCUGUGCUACACAUCGUAUGUACCGAAUCGGAAAAAAAGGUUUGGAAAGGAAAGUAUUAUGUUACGCCGUUCGGAUCUGCACUUCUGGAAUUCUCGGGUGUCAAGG: -0.31
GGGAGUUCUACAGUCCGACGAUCUCCUGUGCUACACAUCGUAUGUACCGAAUCGGGGUUUUUGGGGUUUGGGGUUUUUGGGGAAAGUAUUAUGUUACGCCGUUCGGAUCUGCAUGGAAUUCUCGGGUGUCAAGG: 1.57
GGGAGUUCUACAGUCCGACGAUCAAGUCCUGUGCUACACAUCGUAUGUACCGAAUCGGUUUUUUUGGAAAGGAAAAAGGAAAGUAUUAUGUUACGCCGUUCGGAUCUGCACUUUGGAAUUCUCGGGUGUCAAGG: -0.181
